Assay results from different studies.
Numbered parts are unrelated; each lists some results of a single study. Substitutions count along the parent as printed.

Study 1 — technique: DHFR PCA, deep sequencing; matrix: yeast; added: (+)-ABA 4.8 µM; relative to: wild-type fitted maximum; direction: higher = stronger binding
Target: ABI1, truncated, D143A, DHFR fusion (Arabidopsis thaliana)
Setting: methotrexate growth selection, single substitutions
Starting sequence: PYL1, truncated, DHFR fusion (Arabidopsis thaliana); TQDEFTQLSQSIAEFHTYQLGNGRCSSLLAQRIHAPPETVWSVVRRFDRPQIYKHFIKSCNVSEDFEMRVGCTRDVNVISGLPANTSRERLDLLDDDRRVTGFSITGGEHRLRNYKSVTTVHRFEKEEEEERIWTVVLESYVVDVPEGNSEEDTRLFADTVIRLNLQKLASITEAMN
Change | relative binding score [%]
R99A | 5.84
E151D | 64.2
I12S | 1.54
G108F | -1.66
V100M | 40.7
D144R | 8.61
V62H | 5.67
F5M | 79.5
R98I | 34.6
I133C | 90.1
T160M | 57.1

Study 2 — target: CCNB3, cyclin fold, Cln2 fusion (human); technique: yeast growth competition, sequencing; matrix: yeast; setting: weak parent motif; relative to: not given; direction: higher = stronger binding
Starting sequence: E2F3 docking peptide (human); PPAKRRLELGESG
Change | normalised enrichment score
E8A | 0.315
R5A | 0.251
R5K | -0.71
K4A | 0.165
R6A | 0.483
L9A | 0.35
L7A | 0.102

Study 3 — technique: universal PBM; molecule type: double-stranded DNA, one strand shown; matrix: in vitro; tested at: not given; direction: higher = stronger binding
Target: Sal-like protein 4, full length isoform B (SALL4, Homo sapiens, UniProt Q9UJQ4-2, residues 1-616)
Setting: 8-mer, flanks averaged, mean of replicates
Strand | E-score
ACGCATCA | 0.0591
AACATAGT | 0.191
AGCCCGGG | -0.402
AGATTTAG | 0.0282
CGACCCTC | -0.111
CCTAACTC | -0.189
CACCGCGG | -0.302
CACTCACG | -0.207
AAGCGATA | 0.0301
GAATGAGC | 0.053
CAGTTTCG | -0.0979
CACGATAA | 0.167
AAAAGTGC | 0.0321
AACTCGGC | -0.171
CAACTGCG | -0.237
GCGTGGGA | -0.146
AACACGGA | -0.0412
CCGTGCCC | -0.276
GCTTGTAC | 0.0265

Study 4 — technique: RNA Bind-n-Seq; molecule type: RNA; matrix: in vitro; tested at: 365 nM; relative to: no-protein control; direction: higher = stronger binding
Target: RNA binding protein fox-1 homolog 2, RRM domain, GST-SBP tag (RBFOX2, Homo sapiens, UniProt O43251-10, residues 100-194)
Setting: natural RNA segment, single round, ends assumed
All sequences stand within: GGGAGUUCUACAGUCCGACGAUC … UGGAAUUCUCGGGUGCCAA
Target sequence (chain): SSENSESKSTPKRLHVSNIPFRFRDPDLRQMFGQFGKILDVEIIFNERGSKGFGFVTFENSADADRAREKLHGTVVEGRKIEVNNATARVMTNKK
Strand | RBNS enrichment (R)
CAAGAUAUCUCAUGGCAUAUUAAAAGAAAAAUCUUAAUAGCAGUGUUGGCUUUUAUUUGGAUUUUUUCAUCUCAGUUUUUUCUGUGGAAUCUCCUUCAUUGGCAUUGUUA | 0.845
UGUAUCCAAGAAAGCAAGCAAAUGAAAAGAAACCUAUUUAUGGAAUAAACUCCAGAUCUGAAAUUCAGUAUUUUAGAAAAAUGCCAGCUCUUCUUACUGUAUUUAUUAAA | 1.24
CUUUCCUAACUCGUGCUCCCUUCCGCCUUCUUUUCCGUACUGUGAAGAAAGAACUCUCCACCCCAGCUCCCACCCUGCCCUGGCCUGGGUGGAGGAACUGUGCCUCCAUC | 1.07
AACUAAAAUCAAUAUGUUUUAAAAGUCACCAUAUAGCUUCUUACUAGUUAUCUUUUAAAGACUGUGGUGGUCUUAAAAGGGAACAAAAGCUACUACAGACUAAAUUUAUG | 0.462
GGAUCUUCAGAAUUCUAAAGGCACAUGUUAGAAUGCAGAGUCCUGAUGACCUGUCAAUAAACUUUUUUUUACUAAUGAACUGUACAUUUAAAUAAAAGUUUAUUUUUGGG | 1
AAAGAACAAAAUAACCCGACCUUUAUUGCUGGGAGCUGGCUUCUGUCCCUUUCUUCCCCCCCCCACGAGUCUUGCCCUUGACUUCUGCUCUGGAUUCACUCUUCCCUGUC | 0.906
AUGUAAAUGCUCCAUGUUCCUGUACACUGUCUCCUUUUGGAGCAUCUCUGAAUGGAGCAUGGCUGUUUUCAUCUCACUGCUGUAUUCCAGAUGCUGCCCACAAAUGCUCC | 0.205
GUGAAUCCUGGAUUCUGAGUAAGUUCCAGGGUUCUGGCCUUGAAGCCUUGGACUACACACAUUUCAAACAAAACCAAAUGCUGUCGUCGACAAGCCAGCACAGGCGAAGU | 0.234

Some of these lines once more (study 2):
Change | normalised enrichment score
R5A | 0.251
R5K | -0.71
K4A | 0.165
R6A | 0.483
L9A | 0.35
